Results pooled from the literature.
Parts stem from different laboratories: compare values within a part only. Changes are numbered by the printed parent chain.

Set 1
Target: PABPC1L2, full length, GST fusion (mouse, UniProt A0ABA7IW68)
Technique: RNAcompete
Molecule type: RNA
Sample: in vitro
Tested at: 20 nM
Setting: 7-mer, probes averaged, single round
Reference: mean of 7-mers
Reading: higher = stronger binding
Construct (chain): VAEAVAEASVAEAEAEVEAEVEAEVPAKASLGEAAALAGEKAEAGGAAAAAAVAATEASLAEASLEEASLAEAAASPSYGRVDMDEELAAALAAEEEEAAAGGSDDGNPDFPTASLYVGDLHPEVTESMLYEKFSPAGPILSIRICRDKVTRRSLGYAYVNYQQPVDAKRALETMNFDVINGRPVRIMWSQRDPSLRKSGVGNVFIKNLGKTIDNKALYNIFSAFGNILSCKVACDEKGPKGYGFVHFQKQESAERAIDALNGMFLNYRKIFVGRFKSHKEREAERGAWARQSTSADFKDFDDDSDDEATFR
| Oligonucleotide | 7-mer Z-score |
| --- | --- |
| GAGAGCG | 0.0279 |
| UCCAACU | -0.298 |
| GGGUUCA | -0.0283 |
| AGGCAUU | 0.113 |
| UUGUAGG | -0.228 |
| CAGAAAG | 0.811 |
| CAAGGCA | 0.224 |
| AUCGGUC | -0.18 |
| GGCAGUG | 0.204 |
| ACGUAUC | -0.235 |
| UGGCAAA | 0.697 |
| CAAAGGU | 0.0678 |
| UUCGGUU | -0.38 |
| GAAAAUA | 5.16 |
| GGCGAAG | 0.213 |
| CCGAUUG | -0.191 |
| GAGCAGC | -0.175 |
| AAUAGUA | 0.258 |
| UUCUCGA | -0.354 |
| UAAGAAA | 1.12 |
| CACGACG | -0.215 |
| CUAUACG | -0.222 |
| UAAGUAA | 0.111 |

Set 2
Target: OGT, full length, His-tagged (human)
Technique: phage display, sequencing
Sample: in vitro
Tested at: 1 µg OGT
Setting: single substitutions, 15-mer displayed peptide, unchanged parent 19.6
Reference: input library
Reading: higher = stronger binding
Starting sequence: peptide; TAPFYPPAYQIQVFK
| Variant | fold enrichment [fold] |
| --- | --- |
| Q10H | 1.75 |
| A2T | 21.7 |
| Q12D | 11.2 |
| Y5R | 1.69 |
| K15H | 8.84 |
| V13W | 26.4 |
| P3Y | 14.4 |
| F14E | 14.6 |
| V13E | 0.782 |
| P7I | 1.42 |
| A2K | 15.6 |
| T1S | 18.8 |
| P3F | 18.1 |
| F4M | 19.8 |
| Q10T | 2.11 |
| P7F | 1.9 |
| V13Y | 23 |
| Y9R | 0.785 |
| F14R | 15.8 |
| I11T | 0.483 |
| Q10G | 0.748 |
| I11R | 0.483 |
| K15I | 8.07 |
| V13R | 1.29 |
| V13I | 25.3 |

Set 3
Target: RING finger protein unkempt homolog, zinc fingers 1-6, GST-SBP tag (UNK, Homo sapiens, UniProt Q9C0B0, residues 30-357)
Sequence of UniProt Q9C0B0 (30-357, looked up): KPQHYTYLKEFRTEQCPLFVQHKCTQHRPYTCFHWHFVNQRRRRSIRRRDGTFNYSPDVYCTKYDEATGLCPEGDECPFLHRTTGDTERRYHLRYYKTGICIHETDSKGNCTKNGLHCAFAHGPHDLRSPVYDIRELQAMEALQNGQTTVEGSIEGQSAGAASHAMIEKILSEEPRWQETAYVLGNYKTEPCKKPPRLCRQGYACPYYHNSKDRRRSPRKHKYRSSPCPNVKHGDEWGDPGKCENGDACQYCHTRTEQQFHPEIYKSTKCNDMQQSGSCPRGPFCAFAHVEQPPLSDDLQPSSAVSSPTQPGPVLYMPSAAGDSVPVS
Technique: RNA Bind-n-Seq
Molecule type: RNA
Sample: in vitro
Tested at: not given
Setting: RNA with constant flanks, ends assumed
Reference: input RNA pool
Reading: higher = stronger binding
All sequences stand within: GGGAGUUCUACAGUCCGACGAUC … CAACAGAGGAUUGAGCAUCA
| Oligonucleotide | bound/input enrichment |
| --- | --- |
| UUUCAGCAACUGGUCAAUUUUUCAGAAGGAGGACCAGGCUCUAAUUCUACUGGCAGUGAAGCCGCAUCGAUGUCCUCGCAGCUCCCAGAUACACCCAACAGCAUGGUAGCCAGUCCUAUU | 0.129 ratio |
| UAUGUUUACGGAGUCCUGUUUAGUUUGGCAGAAAGCAGAAAGAAAACUGAGAGACUUGCUUUCCGAAAGAACAGACUUCCACCAGAAUUCUCGCCACUGAUCAUUAAGGAGUGGGCAGCU | 0.216 ratio |
| AUUUCCAGUUGUCUGAGGUGGCCAGGACAUUACUCCCGUGCGCCUUACCCAUACUUCAGCCGCAGGCAUUUCUCAUUGAACUGUAGACCACCUUUUCUGUUUGAGUCUGGAACGCAGUUU | 0.321 ratio |
| GUAGGUCAGGACCCUGUCAUGAGACAGGUGGAAGGAAAAAACCCAGUCACAAUAUUUUCUCCCGCAACAAAUGAGAUGUGGCGAUCAGGGGAUAGUGAAGUAUACCAAAUGGGUGACGUU | 0.917 ratio |
| CUGAACAAAAUUACCAAAAACCUAGGGUUUGGGAUGGGAAUUGAAUUCCGUGAAGGCUCCCCCGUAAUCAAUAGCAAAAAUCAAUACAAACUGAAGAAAGGAAUGGUUUUCAGCAUCAAU | 7.16 ratio |
| CAAUCUAGAAAUUUUGAAUACCAUGAGGAAAGACAUUUCCAUGGGCACUAUGACCCUGAAUACCGACAUGAUCAACAAAGACCCUUUACUUGGAGAAUGGAUGAUGAAAAACAUGGACAA | 3.13 ratio |
| UUAGACUGUAAGCUUGCCAAGGGCAGGGACUGUGUUUUAUUCAUCUGUAUCCAUCACAGCACCCGGCGUGGUGCAUAGCACACAGCAGUUGCUCAAUAAAUGUUUGUUGGAUUAAAUCCU | 0.202 ratio |
| CUCCAGAAAGAAAACAAAAUUAAUGCCUUGCAUCCUGGAAGUUCAUUUAGGAAUCUGAAAUCCGGGACUUCUUUAAAAUUUGGACAUGGCUAAUCGAGGAGCAACAAGACCCAACGGGCC | 0.411 ratio |
| AAUUCAUAAUCACGCUAAUUGUAAUCUGGAGACGUGUAACAUUGUGUAGCCUUUUGUAUAAACCGACAGAUAGAAAUGGUCCGAUUAGUUUCCUUUUUAAUAUGCUUAAAAUAAGCAGGU | 4.73 ratio |
| GGUCAGGCUAAUAAGCCUGAUGAAACUAGUAAAACUAGUAUUCUGGCUGUAUCAGAUGUAUCCCGCAGUAAACCAAGCAUCAAGGCUGUUAUAGUCUCUUCUCCUAAGGCAAAAGCUACA | 0.237 ratio |
| GAAAUGUUAGCACACAGAGCAGUGCUAGCUUGCUGCAGUCCCUAUUUAUUUGAAAUCUUUAACCGUGAUAGUGAUCCUCAUGGAAUUUCUCACGUUAAAUUUGAUGAUCUCAAUCCAGAA | 0.385 ratio |

Set 4
Organism: Saccharomyces cerevisiae
Read-out: peptide binding
Technique: yeast competitive growth sequencing
Molecule type: peptide
Strain: cyclin-Cln2 fusion strain
Tested at: concentration not given
Setting: library 1
Reading: direction not given
| Molecule | binding score |
| --- | --- |
| ASPLKKLFTSTGL | 0.289 |
| GSALKKLFTSTGL | 0.408 |
| GSPLAKAFTSTGL | -0.355 |

Set 5
Target: Interferon regulatory factor 7, full length, phosphomimetic (IRF7, Homo sapiens, UniProt Q92985, residues 1-503, S471D/S472D/S475D/S476D/S477D/S483D/S484D/S487D)
Sequence of UniProt Q92985 (whole entry, unmodified, looked up): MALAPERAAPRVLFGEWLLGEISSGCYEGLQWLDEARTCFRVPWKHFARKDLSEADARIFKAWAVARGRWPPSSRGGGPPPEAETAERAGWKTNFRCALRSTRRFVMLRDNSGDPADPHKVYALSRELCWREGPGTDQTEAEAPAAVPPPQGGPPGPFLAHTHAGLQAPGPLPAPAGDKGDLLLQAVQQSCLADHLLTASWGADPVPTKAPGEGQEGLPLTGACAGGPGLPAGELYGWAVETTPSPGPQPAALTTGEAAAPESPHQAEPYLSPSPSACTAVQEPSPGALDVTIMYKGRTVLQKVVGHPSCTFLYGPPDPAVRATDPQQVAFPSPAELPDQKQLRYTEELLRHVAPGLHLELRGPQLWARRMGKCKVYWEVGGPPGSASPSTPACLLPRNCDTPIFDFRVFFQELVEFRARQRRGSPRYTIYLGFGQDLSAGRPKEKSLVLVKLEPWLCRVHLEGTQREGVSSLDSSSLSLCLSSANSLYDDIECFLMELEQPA
Technique: protein-binding microarray
Molecule type: double-stranded DNA, one strand shown
Sample: in vitro
Tested at: 2200 nM top
Setting: 60-bp whole probe
Added: salmon DNA 0.4 mg/ml
Reference: random background probes
Reading: higher = stronger binding
All sequences stand within: GCCTAGCAC … GTCTTGATTCGCTTGACGCTGCTG
| Oligonucleotide | fitted relative affinity [z-score] |
| --- | --- |
| GACGATTTCAGTCTCGAAACGTGCTAG | 0.842 |
| GACGATTTCCGTCTCGAGACGTGCTAG | 1.77 |
| GACGGTCTGCTACTGCTGACGTGCTAG | -0.0565 |
| ACCTCTCACGCATCTGAAACCGTGCTA | 1.21 |
| TTAAGTATCGGTATCGGTTAGTGCTAG | 1.18 |
| GACGATTTCAGACTCGAGACGTGCTAG | 0.479 |
| GACGGACTAGGGTTTCGGGACGTGCTA | 0.653 |
| TCCCTTCAACAGTGCTGGCTGTGCTAG | 0.952 |
| TTACAGCTATTTTTAGGATGGTGCTAG | -0.0529 |
| TGTGCTTTCCTGATGGTCCTGTGCTAG | 2.11 |
| GACGGACTGGACTTTCGGAACGTGCTA | 2.5 |
| TTCTCTCTGGCCCTCCTGAGGTGCTAG | 0.467 |
| TTAGGTATCGACATTGGGTTAGTGCTA | 0.222 |
| TAAGGTATCCTACTGCTTTAGTGCTAG | 0.415 |
| TCAGATTTATCAAATGTGACTGTGCTA | -0.219 |
| CTCGCCTGGGGATGCTAACAGTGCTAG | -0.459 |
| GACCAACTGAGTCTCGAGACGTGCTAG | 0.227 |
| TTAGGAATGGGTTTCGGTTAGTGCTAG | 3.64 |
| GACGGTTTCGGTACTGGGGACGTGCTA | 5.59 |
| TTAGGTCTCCGACTGGGTTAGTGCTAG | -0.627 |
| TTAGATTCCAGTTGCGATTAGTGCTAG | 2.12 |

Set 6
Target: Histone acetyltransferase KAT6A, winged helix 2, GST fusion (KAT6A, Homo sapiens, UniProt Q92794, residues 85-181)
Technique: protein binding microarray
Molecule type: double-stranded DNA, one strand shown
Sample: in vitro
Tested at: not given
Setting: 8-mer, flanks averaged, mean of 2 arrays, mostly near background
Reference: not given
Reading: higher = stronger binding
Target sequence (chain): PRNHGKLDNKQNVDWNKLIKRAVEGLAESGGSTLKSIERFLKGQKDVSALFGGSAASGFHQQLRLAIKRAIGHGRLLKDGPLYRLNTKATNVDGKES
| Oligonucleotide | E-score |
| --- | --- |
| CACAGGAA | -0.0317 |
| GGGACGCA | 0.0448 |
| AACGTTGT | -0.221 |
| GACGTCAA | -0.06 |
| ATGGATTG | -0.00273 |
| ACCGCATC | 0.14 |
| CTCAGGTA | 0.0434 |
| GCCTTTCA | -0.00988 |
| GAGGTTCC | 0.047 |
| AGTACCAC | -0.141 |
| GACGTGCA | -0.0623 |
| ACTTGGAG | -0.0761 |
| ACGTCACA | -0.21 |
| AGTATGAG | -0.0357 |
| AAGCGGCA | 0.177 |
| CAGGATGA | 0.0136 |
| CGAAAGTC | -0.17 |
| AGTAAAGG | 0.0285 |
| GGGGGCTA | -0.0199 |
| CACTTAAG | 0.0652 |
| CCGGACAC | 0.0401 |
| AGACAGTC | -0.171 |
| GAAAGGCA | 0.151 |
| AAGCTCCG | 0.134 |
| GGTGGCTA | -0.0396 |

Some of these lines once more (set 6):
| Oligonucleotide | E-score |
| --- | --- |
| ACCGCATC | 0.14 |
| CAGGATGA | 0.0136 |
| AGTACCAC | -0.141 |
| AACGTTGT | -0.221 |
| CTCAGGTA | 0.0434 |
| CACAGGAA | -0.0317 |
| AAGCTCCG | 0.134 |
| GAAAGGCA | 0.151 |
| GGTGGCTA | -0.0396 |
| GGGGGCTA | -0.0199 |
| ACGTCACA | -0.21 |
| GCCTTTCA | -0.00988 |
| AAGCGGCA | 0.177 |
| AGTAAAGG | 0.0285 |
